Assay results of several laboratories.
Every numbered part comes from another study and shows a few of its results, in no order. Positions count from the first letter of the parent shown.

Block 1
Target: RING finger protein unkempt homolog, zinc fingers 1-6, GST-SBP tag (UNK, Homo sapiens, UniProt Q9C0B0, residues 30-357)
Technique: RNA Bind-n-Seq
Molecule type: RNA
Sample: in vitro
Concentration: not given
Notes: RNA with constant flanks, human-mouse chimeric sites, ends assumed
Relative to: input RNA pool
Direction: higher = stronger binding
Measurement: bound/input enrichment
Residues (chain): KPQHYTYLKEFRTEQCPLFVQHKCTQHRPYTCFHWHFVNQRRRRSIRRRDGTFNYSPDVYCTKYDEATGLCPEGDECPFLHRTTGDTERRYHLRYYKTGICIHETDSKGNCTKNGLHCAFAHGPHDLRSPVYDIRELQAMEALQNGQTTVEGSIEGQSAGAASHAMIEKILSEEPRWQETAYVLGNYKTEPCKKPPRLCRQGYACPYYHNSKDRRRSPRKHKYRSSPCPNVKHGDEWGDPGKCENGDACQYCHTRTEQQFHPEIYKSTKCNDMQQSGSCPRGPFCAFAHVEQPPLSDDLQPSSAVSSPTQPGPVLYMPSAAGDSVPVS
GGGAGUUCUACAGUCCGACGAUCUGUGCAUAUGAUGCUUGAGAUGGUUUUUGCAAAAGCAGACAUCGCUGCAAGGUAAUCACAAUAGAUAAAAGUGGUAUUUUAAACCUUUGAAAGGAAUGGAUGUAACUGUACCUUGGUACACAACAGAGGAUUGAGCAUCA: 0.408 ratio
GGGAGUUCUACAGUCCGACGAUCAUCAAAUAUUUUGGGGACAUCAUUAGUGUGGGACAGAGAUUGUUGCAAGGAGCUCGGAUCUUAGGGAUUCCAGUUAUCAUAACGGAACAAUACCCCAAAGGACUUGGCAGCACCGUUCAACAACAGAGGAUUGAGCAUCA: 0.268 ratio
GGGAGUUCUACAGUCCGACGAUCUAACCACAUCAAGAUGGUUGGGAAGCUGAAGCAGAACUUACUCUUGGCAUGUCUGGUGAUUAGUUCUGUGACUGUGUUUUACCUGGGCCAGCAUGCCAUGGAGUGCCAUCACCGAAUAGACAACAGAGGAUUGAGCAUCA: 0.489 ratio
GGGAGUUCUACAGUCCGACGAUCCAGCUGCGAGGCCGCGGUUUCCCCCUGGGCCUCCCCAGCAGCAGCCAUGGGCAUCAAGUUUUUAGAAGUUAUCAAACCAUUCUGUGCAGUUCUACCAGAAAUUCAGAAACCGGAAAGGAACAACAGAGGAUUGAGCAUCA: 0.536 ratio
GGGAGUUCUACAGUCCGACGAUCAGAGAUAAGACAUCCAGGAACAUGCGAGGCUCCCGGAUGAAUGGGUUUCCAAGUCCCACUCACAGCGCCCACUGUAGCUUCUACAGAACCAGAACCUUGCAGGCACUGAGUAAUGAGAAGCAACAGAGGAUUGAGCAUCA: 0.0613 ratio
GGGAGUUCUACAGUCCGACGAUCGAUAAGAAAAGCUUGUUGGAGACCCGCUUGCAUGUCACUGGUAGAGACCUGAGGUGUAAAAUAGCUGAAACCUUUGGAUUUCAAGAAAAUUACAUCAAGAUCGUAAUAAAUAAGAAACAGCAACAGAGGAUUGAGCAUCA: 0.376 ratio
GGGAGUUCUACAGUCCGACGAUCGUAAUGGACGUCAACACUGCUCUACAAGAGGUUCUGAAGACUGCCCUCAUCCACGAUGGCCUAGCACGUGGCAUACGCGAAGCUGCCAAAGCCUUAGACAAGCGCCAAGCCCAUCUGUGUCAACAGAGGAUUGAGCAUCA: 0.149 ratio
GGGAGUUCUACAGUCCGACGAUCCAACAGAGUCUAGGAUGGGUUCAUUACAUGAUUCAUGAGCCAGAACCGCAUAUUCUUCUCUUUAGACGACCUCUUCCAAAAGAACAACAAAAAUGAAGUUUAUCUGGGAUCAUCUAAUCUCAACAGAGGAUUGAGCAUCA: 0.149 ratio

Block 2
Target: CCNB3, cyclin fold, Cln2 fusion (human)
Technique: yeast growth competition, sequencing
Sample: yeast
Notes: weak parent motif
Relative to: not given
Direction: higher = stronger binding
Measurement: normalised enrichment score
Starting sequence: E2F7 docking peptide (human); SSAQRRLEIPSGG; partner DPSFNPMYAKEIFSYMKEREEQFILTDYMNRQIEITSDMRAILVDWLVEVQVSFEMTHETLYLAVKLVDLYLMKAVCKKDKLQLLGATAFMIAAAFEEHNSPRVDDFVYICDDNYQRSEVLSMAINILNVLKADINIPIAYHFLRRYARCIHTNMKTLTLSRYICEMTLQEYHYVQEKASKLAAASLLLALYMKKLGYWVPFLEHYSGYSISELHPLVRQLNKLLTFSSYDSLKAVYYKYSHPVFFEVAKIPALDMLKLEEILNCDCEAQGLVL
SSAQRRAEIPSGG [L7A]: 0.446
SSAQARLEIPSGG [R5A]: 0.194
SSAQRRLEFPSGG [I9F]: 0.445
SSAQKRLEFPSGG [R5K I9F]: 0.00496
SSAQARAEIPSGG [R5A L7A]: 0.162
ASAQRRLEIPSGG [S1A]: 0.32
SSAQKRLELPSGG [R5K I9L]: -0.217
SSAQRRLEAPSGG [I9A]: 0.332
SAAQRRLEIPSGG [S2A]: -0.115
SSAQRRLEIPSAG [G12A]: -0.338

Block 3
Target: ABI1, truncated, D143A, DHFR fusion (Arabidopsis thaliana)
Technique: DHFR PCA, deep sequencing
Sample: yeast
Notes: methotrexate growth selection, single substitutions
Added: (+)-ABA 0.0091 µM
Relative to: wild-type fitted maximum
Direction: higher = stronger binding
Measurement: relative binding score
Starting sequence: PYL1, truncated, DHFR fusion (Arabidopsis thaliana); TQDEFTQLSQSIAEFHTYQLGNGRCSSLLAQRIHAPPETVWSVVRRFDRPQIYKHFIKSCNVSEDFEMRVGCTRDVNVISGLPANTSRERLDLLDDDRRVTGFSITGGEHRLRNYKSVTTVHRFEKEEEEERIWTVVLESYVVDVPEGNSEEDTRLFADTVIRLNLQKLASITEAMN; partner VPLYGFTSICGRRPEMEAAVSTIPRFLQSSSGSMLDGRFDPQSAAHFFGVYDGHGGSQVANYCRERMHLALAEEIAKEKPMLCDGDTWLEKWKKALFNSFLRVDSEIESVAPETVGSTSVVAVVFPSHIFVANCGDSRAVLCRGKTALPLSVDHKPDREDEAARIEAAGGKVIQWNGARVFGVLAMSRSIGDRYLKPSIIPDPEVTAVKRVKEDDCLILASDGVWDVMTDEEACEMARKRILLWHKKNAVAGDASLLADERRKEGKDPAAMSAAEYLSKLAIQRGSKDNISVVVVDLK
H34K: 40.4%
I57M: -7.51%
H110F: 18.5%
R45W: -0.283%
V76T: -4.71%
I79G: 1.8%
H34N: 51.5%
P37T: 6.39%
E131W: 27.5%
E129V: 16.3%
S63V: 6.93%
S63C: 30.3%
F47Q: -4.18%
R49K: 46.5%
S171I: 5.36%
G108W: -7.09%
T73Q: 13.1%

Block 4
Target: Ras GTPase-activating protein-binding protein 1, C-terminal RGG region (G3BP1, Homo sapiens, UniProt Q13283)
UniProt Q13283, sequence (whole entry, looked up): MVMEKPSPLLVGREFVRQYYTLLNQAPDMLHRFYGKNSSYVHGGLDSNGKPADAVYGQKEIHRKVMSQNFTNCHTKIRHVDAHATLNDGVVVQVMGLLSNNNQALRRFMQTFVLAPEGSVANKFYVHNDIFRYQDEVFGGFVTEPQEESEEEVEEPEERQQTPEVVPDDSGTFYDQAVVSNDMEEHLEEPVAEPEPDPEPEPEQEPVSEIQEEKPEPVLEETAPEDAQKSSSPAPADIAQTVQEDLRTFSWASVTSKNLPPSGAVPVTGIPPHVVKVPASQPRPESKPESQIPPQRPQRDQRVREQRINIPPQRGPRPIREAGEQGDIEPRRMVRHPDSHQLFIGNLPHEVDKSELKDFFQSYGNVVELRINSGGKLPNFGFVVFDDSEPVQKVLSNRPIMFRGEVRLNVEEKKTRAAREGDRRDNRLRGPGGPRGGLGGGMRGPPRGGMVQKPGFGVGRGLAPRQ
Technique: RNA Bind-n-Seq
Molecule type: RNA
Sample: in vitro
Concentration: 1 µM
Notes: whole 134-nt RNA, ends assumed
Added: 150 mM KCl
Relative to: input library
Direction: higher = stronger binding
Measurement: log2 enrichment
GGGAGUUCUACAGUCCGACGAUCCAAGUCCUGUGCUACACAUCGUAUGUACCGAAUCGGUUUGGUUUUUGGAAAAAGGAAAGUAUUAUGUUACGCCGUUCGGAUCUGCACUUCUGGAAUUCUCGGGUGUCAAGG: -1.57
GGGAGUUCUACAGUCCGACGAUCCCUCAAGUCCUGUGCUACACAUCGUAUGUACCGAAUCGGCCGGCCGGCCGGGAAAGUAUUAUGUUACGCCGUUCGGAUCUGCACUUCCAGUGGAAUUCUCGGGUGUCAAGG: -1.32
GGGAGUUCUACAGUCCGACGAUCGUCCUGUGCUACACAUCGUAUGUACCGAAUCGGGGAAAAAAAGGGGAGGGGAAAGGGGAAAGUAUUAUGUUACGCCGUUCGGAUCUGCACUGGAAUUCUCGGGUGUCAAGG: 2.13
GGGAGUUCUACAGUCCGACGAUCUGGGAGGUGGAUUUUGUUUAUUUUUUUAGCUCAUUUCCAGGGGUGGGAAUUUUUUUUGAAUAUGUGUCAUGAAUAAAGUUGUUUUUGAAAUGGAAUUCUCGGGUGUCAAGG: 3.47
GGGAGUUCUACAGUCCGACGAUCCCUGUGCUACACAUCGUAUGUACCGAAUCGGGGAAAAAGGGGUUUUUUUGGGGUUUGGGGAAAGUAUUAUGUUACGCCGUUCGGAUCUGCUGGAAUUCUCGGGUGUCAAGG: 0.272
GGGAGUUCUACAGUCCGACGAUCAAGUCCUGUGCUACACAUCGUAUGUACCGAAUCGGGCCCCGGGCCCCGGCCCCGGGAAAGUAUUAUGUUACGCCGUUCGGAUCUGCACUUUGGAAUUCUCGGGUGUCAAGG: -2.38
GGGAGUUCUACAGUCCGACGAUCAGUCCUGUGCUACACAUCGUAUGUACCGAAUCGGGGUGGGGUUUUUUUGGGGUGGGGAAAGUAUUAUGUUACGCCGUUCGGAUCUGCACUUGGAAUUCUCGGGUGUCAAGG: 1.73
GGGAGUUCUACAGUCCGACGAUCCAAGUCCUGUGCUACACAUCGUAUGUACCGAAUCAAAUUUAAACCCAAAUUUAAAAAAGUAUUAUGUUACGCCGUUCGGAUCUGCACUUCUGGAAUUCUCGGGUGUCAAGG: -0.982
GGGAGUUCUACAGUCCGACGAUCGCAGGAAGUAAAAACAAAUGGAAAUGCUUCGGAUAGUGGCAGGGGUGGGGGUUGCUAAGGAAAAAGUGGGAUGGGAGUGGGUAAAGAGUUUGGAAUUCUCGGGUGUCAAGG: 2.06

Excerpt of the above (block 3):
T73Q: 13.1%
S63V: 6.93%
G108W: -7.09%
H34N: 51.5%
F47Q: -4.18%
